Experimental data pooled from the literature.
Each numbered part is a random draw from the data of one study; scales do not carry over between parts.

Block 1 — method: RNA Bind-n-Seq; form: RNA; sample: in vitro; concentration: not given; baseline: input RNA pool; direction: higher = stronger binding
Target: RING finger protein unkempt homolog, zinc fingers 1-6, GST-SBP tag (UNK, Homo sapiens, UniProt Q9C0B0, residues 30-357)
Setting: RNA with constant flanks, human and mouse sites, ends assumed
Shared flanks, not repeated: GGGAGUUCUACAGUCCGACGAUC … CAACAGAGGAUUGAGCAUCA
Construct (chain): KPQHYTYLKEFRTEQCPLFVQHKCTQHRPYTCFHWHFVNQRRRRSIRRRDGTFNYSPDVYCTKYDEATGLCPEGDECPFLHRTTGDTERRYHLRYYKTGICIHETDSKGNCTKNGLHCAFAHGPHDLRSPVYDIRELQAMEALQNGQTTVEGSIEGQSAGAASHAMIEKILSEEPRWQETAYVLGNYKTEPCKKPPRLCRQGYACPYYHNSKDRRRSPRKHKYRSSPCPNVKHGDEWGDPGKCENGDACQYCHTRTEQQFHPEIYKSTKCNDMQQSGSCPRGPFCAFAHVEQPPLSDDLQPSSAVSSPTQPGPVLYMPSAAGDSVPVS
| Oligonucleotide | bound/input enrichment |
| --- | --- |
| UAAAUAUUAUAUAUAUCAAAAGCCAAAAUCUUUAUUUUUAUGCAUUUAGAAUAUUUUAAAUAGUUCUCAGAUAUUAAGAAGUUGUAUGAGUUGUAAGUAAUCUUGCCAAAGGUAAAGGGG | 7.03 ratio |
| GCAUGUUGGGUUUGCAGGACUGGCCCACACAGUCCCCUGCAGGUGGCAGCCCUCUUUUCUGUUUCUCGCUGUCAAGAGGGUGUAAGUAUUCCACCAGCCCGCUGAGUGUGCACGAAAUGU | 0.0769 ratio |
| AGCCCAGUGAAUGGAAAACUUUCCGUGACUAAACCUGUCCUACAAAGUACCAUGAGAAAUGUCGGUUCAGAUAUUGCUGUGCUAAGGAGACAGCAACGUAUGAUAAAAAAUCGAGAAUCC | 0.141 ratio |
| AAGAGUGCAGACGACUUUAUAGAUAAGCACAUUGCUGAAUUAAUAUUUUACAUGGAAGAACUUAGAGCACAUGUGAGGAAAUACGGACCUGUAAUGCAGAGGUAUUACGUGCAGUACCUU | 1.26 ratio |
| CCAGGGGGUGAUCAAGUACAUGGGGCCGGCAGGAGCAAAGAAUCUGCAGAGUGUUGUGCUUAGUAAAAUGAAUUUUGAAUCUUUUGUAAAAGAUCUUCUUCUGGUUCGUCAGUAUAGAGU | 4.35 ratio |
| CACAAUUGCUCUUACAAUUACAAAGCUGAUGCUGCUGAGAAAAUCAGAAAAGAAAAUCCAGUAGUUGUUGGUGAAAAGAUCCAGAAGAUUUGAACUCCUGCUGGAAUACAAAAUCCUUUG | 0.132 ratio |
| UCAGCCAUUGGUGUGCACUCAUCUUUAGCACCAUUGGUGAAAAUUCUCGAGAGCUGUGGAAUAGAGUCAAAGAUUGAGCCAGAAGUCAAUGACUCCCUGGGGGUUUACUGCAUUGAUGCC | 0.345 ratio |
| AGAUAAGGGUUCUUGGUUUUUGUUUGUUUUCUCUACAUCAUUUCGUGUUUUUGUAUUCUGCACCAUUUUACAAAUGAAGAUGUGUUUGCAGUUAUUUUUUCCAGCUAUAAACCUAGAAUA | 0.335 ratio |

Block 2 — method: protein binding microarray; form: double-stranded DNA, one strand shown; sample: in vitro; concentration: not given; baseline: not given; direction: higher = stronger binding
Target: Histone acetyltransferase KAT6A, winged helix 1, GST fusion (KAT6A, Homo sapiens, UniProt Q92794, residues 1-85)
Setting: 8-mer, flanks averaged, mean of 2 arrays, mostly near background
Residues (chain): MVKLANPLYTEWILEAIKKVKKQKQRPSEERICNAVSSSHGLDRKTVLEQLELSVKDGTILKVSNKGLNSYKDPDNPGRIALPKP
| Oligonucleotide | E-score |
| --- | --- |
| ACACAACG | 0.0262 |
| CCTTAAAG | -0.224 |
| CATCTGGC | -0.21 |
| AATTAAGA | -0.19 |
| CTGTCTCA | -0.15 |
| CACCTTAC | -0.0057 |
| CGTATGAC | 0.0232 |
| AAGGATTA | -0.216 |
| AACGCTGA | 0.169 |
| ATGAGAGA | -0.224 |
| ACATTCGC | 0.108 |
| AGTCCTCG | -0.283 |
| AAATCGGT | -0.0464 |
| AGAGCAGG | -0.148 |
| AAGAGACA | -0.0983 |
| AACTTTCT | -0.0562 |

Block 3 — method: universal PBM; form: double-stranded DNA, one strand shown; sample: in vitro; concentration: 600 nM; direction: higher = stronger binding
Target: Sal-like protein 4, full length isoform A (SALL4, Homo sapiens, UniProt Q9UJQ4, residues 1-1053)
Sequence of UniProt Q9UJQ4 (whole entry, looked up): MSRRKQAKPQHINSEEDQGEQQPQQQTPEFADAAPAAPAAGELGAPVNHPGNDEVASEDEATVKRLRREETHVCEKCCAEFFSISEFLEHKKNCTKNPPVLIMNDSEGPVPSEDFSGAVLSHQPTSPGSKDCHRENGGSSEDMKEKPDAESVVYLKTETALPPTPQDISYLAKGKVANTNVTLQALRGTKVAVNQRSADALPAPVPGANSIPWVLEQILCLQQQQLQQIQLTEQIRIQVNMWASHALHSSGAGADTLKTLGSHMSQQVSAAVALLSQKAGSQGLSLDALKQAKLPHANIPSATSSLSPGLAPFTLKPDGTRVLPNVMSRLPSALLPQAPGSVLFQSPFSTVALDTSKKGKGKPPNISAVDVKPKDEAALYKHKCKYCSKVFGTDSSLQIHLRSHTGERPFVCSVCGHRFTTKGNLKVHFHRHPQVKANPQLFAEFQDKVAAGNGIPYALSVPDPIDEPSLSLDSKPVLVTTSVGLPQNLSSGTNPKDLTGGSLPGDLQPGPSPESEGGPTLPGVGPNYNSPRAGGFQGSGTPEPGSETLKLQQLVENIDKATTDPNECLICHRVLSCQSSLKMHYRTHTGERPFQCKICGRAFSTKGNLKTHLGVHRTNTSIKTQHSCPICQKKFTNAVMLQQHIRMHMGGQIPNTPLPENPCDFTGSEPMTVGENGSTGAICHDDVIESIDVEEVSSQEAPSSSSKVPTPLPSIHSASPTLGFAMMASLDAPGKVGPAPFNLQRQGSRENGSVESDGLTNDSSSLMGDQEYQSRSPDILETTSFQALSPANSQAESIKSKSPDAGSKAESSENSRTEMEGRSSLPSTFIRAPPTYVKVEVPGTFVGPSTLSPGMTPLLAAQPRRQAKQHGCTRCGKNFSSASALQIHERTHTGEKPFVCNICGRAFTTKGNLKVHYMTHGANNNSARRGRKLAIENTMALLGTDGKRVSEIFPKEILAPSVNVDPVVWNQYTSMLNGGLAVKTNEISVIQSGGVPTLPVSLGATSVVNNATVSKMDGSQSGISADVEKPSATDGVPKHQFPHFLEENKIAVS
Setting: 8-mer, flanks averaged, mean of replicates
| Oligonucleotide | E-score |
| --- | --- |
| GGGGGGAA | -0.182 |
| TAATCCAA | 0.261 |
| AGAATGTC | 0.0212 |
| GAGTTTCA | -0.0235 |
| GAACTTGC | -0.0661 |
| GACGCCAA | -0.193 |
| CGTGGGAC | -0.293 |
| GAGGTTAC | -0.0329 |
| AGCTGCGG | -0.393 |
| CGATAAGA | 0.124 |
| GACCCTCC | -0.307 |
| ACAGAACA | 0.0775 |
| ATCACGGC | 0.0317 |
| AGATTCGC | 0.0394 |
| GAAGACCC | -0.172 |
| AAGCAATA | 0.235 |
| GGTGACAA | -0.0022 |
| AGTGTGAA | 0.262 |
| CGCTCTAG | -0.32 |
| CCGCAGTA | -0.114 |

Block 4 — method: protein-binding microarray; form: double-stranded DNA, one strand shown; sample: in vitro; concentration: not given; direction: higher = stronger binding
Target: Myc proto-oncogene protein, bHLH-zipper, MAX partner unstated (MYC, Homo sapiens, UniProt P01106, residues 368-449)
Sequence of UniProt P01106 (368-449, looked up): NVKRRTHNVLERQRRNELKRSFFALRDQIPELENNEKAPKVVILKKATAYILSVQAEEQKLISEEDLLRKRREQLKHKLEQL
Setting: k-mer, scored over probes, only values ≥0.25
| Oligonucleotide | E-score |
| --- | --- |
| AGTCACGA | 0.304 |
| ATGCACTC | 0.279 |
| ATCATGGC | 0.299 |
| GTGCGTCA | 0.258 |
| CGTGGAAA | 0.35 |
| CTCGCACA | 0.27 |
| CGTGCGAA | 0.334 |
| GAGCACGC | 0.438 |
| CATGTCCC | 0.277 |
| CGTGCGGA | 0.293 |
| GCACACAC | 0.284 |
| CTGAGCAC | 0.263 |
| AGCACGCC | 0.385 |
| AGCACGGG | 0.294 |
| CACGCGGA | 0.463 |
| ATCGCATG | 0.37 |
| ACGAGCGT | 0.251 |
| CACGAGTA | 0.357 |
| ACCACCTG | 0.336 |
| ACGCTGCA | 0.265 |

Block 5 — method: RNA Bind-n-Seq; form: RNA; sample: in vitro; concentration: 200 nM; setting: whole 134-nt RNA, ends assumed; with: 150 mM KCl; baseline: input library; direction: higher = stronger binding
Target: Fragile X messenger ribonucleoprotein 1, C-terminal low-complexity region (Fmr1, Mus musculus, UniProt P35922)
Shared flanks, not repeated: GGGAGUUCUACAGUCCGACGAUC … UGGAAUUCUCGGGUGUCAAGG
| Oligonucleotide | log2 enrichment |
| --- | --- |
| CUCAAGUCCUGUGCUACACAUCGUAUGUACCGAAUCGGGCCGGGCCGGGCCGGGAAAGUAUUAUGUUACGCCGUUCGGAUCUGCACUUCC | 0.218 |
| UGCUUGUUCUGGAGUGAUCUUCUGACUGGAAAAGAACUAUGUCAUGGAUCAAGGAAGGAGAGCUGUCACUUUGGGAGCGGUUCUGUGCCA | 0.618 |
| AGUCCUGUGCUACACAUCGUAUGUACCGAAUCAAAUUUUUUUAAAUUUAAACCCAAAAAAGUAUUAUGUUACGCCGUUCGGAUCUGCACU | -0.0535 |
| UCAAGUCCUGUGCUACACAUCGUAUGUACCGAAUCGGGGAAAGGGAAAGGAAAGGAAAGUAUUAUGUUACGCCGUUCGGAUCUGCACUUC | -0.5 |
| UCCUCAAGUCCUGUGCUACACAUCGUAUGUACCGAAUCGGGAGGAGGAGGGGAAAGUAUUAUGUUACGCCGUUCGGAUCUGCACUUCCAG | 0.296 |
| ACGAUGCAGGUGGGCAUCUUUGGGAAGUGGGGCAAGGGGGGGAUAGGGAGGGGGGUAACACUUUGGGAACAGGUGGUCCCAGGUCGUUUC | 1.12 |
| AAGUCCUGUGCUACACAUCGUAUGUACCGAAUCGGUUUUUGGAAAGGAAAAAAAGGAAAGUAUUAUGUUACGCCGUUCGGAUCUGCACUU | -0.9 |
| GUCCUGUGCUACACAUCGUAUGUACCGAAUCAAACCCCCAAACCCCCCCAAACCCAAAAAAGUAUUAUGUUACGCCGUUCGGAUCUGCAC | -0.224 |
| CAAGUCCUGUGCUACACAUCGUAUGUACCGAAUCGGGUGGGUUUUUUUGGGAGGGAAAGUAUUAUGUUACGCCGUUCGGAUCUGCACUUC | 0.727 |
| AAGUCCUGUGCUACACAUCGUAUGUACCGAAUCGGGGAGGGGAAAGGGGUUUGGGGAAAGUAUUAUGUUACGCCGUUCGGAUCUGCACUU | 0.839 |

Excerpt of the above (block 1):
| Oligonucleotide | bound/input enrichment |
| --- | --- |
| GCAUGUUGGGUUUGCAGGACUGGCCCACACAGUCCCCUGCAGGUGGCAGCCCUCUUUUCUGUUUCUCGCUGUCAAGAGGGUGUAAGUAUUCCACCAGCCCGCUGAGUGUGCACGAAAUGU | 0.0769 ratio |
| CACAAUUGCUCUUACAAUUACAAAGCUGAUGCUGCUGAGAAAAUCAGAAAAGAAAAUCCAGUAGUUGUUGGUGAAAAGAUCCAGAAGAUUUGAACUCCUGCUGGAAUACAAAAUCCUUUG | 0.132 ratio |
| UCAGCCAUUGGUGUGCACUCAUCUUUAGCACCAUUGGUGAAAAUUCUCGAGAGCUGUGGAAUAGAGUCAAAGAUUGAGCCAGAAGUCAAUGACUCCCUGGGGGUUUACUGCAUUGAUGCC | 0.345 ratio |
| AGAUAAGGGUUCUUGGUUUUUGUUUGUUUUCUCUACAUCAUUUCGUGUUUUUGUAUUCUGCACCAUUUUACAAAUGAAGAUGUGUUUGCAGUUAUUUUUUCCAGCUAUAAACCUAGAAUA | 0.335 ratio |
| UAAAUAUUAUAUAUAUCAAAAGCCAAAAUCUUUAUUUUUAUGCAUUUAGAAUAUUUUAAAUAGUUCUCAGAUAUUAAGAAGUUGUAUGAGUUGUAAGUAAUCUUGCCAAAGGUAAAGGGG | 7.03 ratio |
